Experimental data pooled from the literature.
Protocols differ between the studies behind these lines. ± marks the error that the study gave.
UCHL1: Ubiquitin carboxyl-terminal hydrolase isozyme L1 (UCHL1, Homo sapiens, UniProt P09936)
UniProt P09936, sequence (whole entry, looked up): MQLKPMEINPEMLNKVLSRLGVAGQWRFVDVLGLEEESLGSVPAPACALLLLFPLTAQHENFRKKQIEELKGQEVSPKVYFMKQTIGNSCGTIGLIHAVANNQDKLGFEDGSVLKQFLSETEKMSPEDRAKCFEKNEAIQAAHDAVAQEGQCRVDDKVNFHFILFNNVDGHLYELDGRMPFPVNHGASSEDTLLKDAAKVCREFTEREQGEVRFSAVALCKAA

`O=C(Nc1ccncc1)c1cc([N+](=O)[O-])ccc1Cl` gave an EC50 of 0.634 µM (Toxoplasma gondii; parasite growth; HFF, bradyzoite, glutamine-induced).
`COc1cc(C=C(C#N)C(=O)NC(C)C)sn1` gave a labelling of 9.76% (UCHL1; covalent, intact protein LC-MS; 12.5 µM).
For `CC(C)NCC(O)c1ccc(O)c(O)c1` (stereo not shown), the sarcomere length was 1.72 µm (ventricular cardiomyocytes, C57BL/6 mouse; dose not given, 0.392 s).
Under “log2 fold change”, `Oc1ccccc1-c1n[nH]cc1-c1ccnc2ccccc12` is recorded as 0.25 (VPS15 (Candida albicans); kinase binding, MIB/MS competition; Candida albicans lysate; 10 µM; baseline: DMSO).
For `CC(C)C[C@H](NC(=O)C[C@H](O)[C@H](CC(C)C)NC(=O)[C@H](Cc1c[nH]cn1)NC(=O)CNC(=O)[C@@H](NC(=O)[C@H](C)NC(=O)[C@H](Cc1c[nH]c2ccccc12)NC(=O)[C@H](CCC(N)=O)NC(=O)[C@@H](Cc1ccccc1)NC(=O)COCCOCCNC(=O)CN1CCN(CC(=O)O)CCN(CC(=O)O)CCN(CC(=O)O)CC1)C(C)C)C(N)=O` [lutetium-177 labelled], the tissue uptake was 2.9 ± 0.7 %ID (BALB/c nu/nu mice, female, carcass incl. GI tract contents; intravenous, 50 pmol, 1 h).
For `NC(=O)c1cnc2[nH]ccc2c1N[C@@H]1[C@@H]2CC3C[C@H]1C[C@@](O)(C3)C2`, “regulatory T-cell change” read -0.28% (flow cytometry; Japanese healthy men, blood; oral, 30 mg twice daily, 72 h after day 7 dose; baseline: baseline).
The inhibition of `COc1cccc(CNC(=O)CCC2CCCN(C/C=C/c3ccccc3OC)C2)c1` (stereo not shown) is reported as 7.9% (Trypanosoma cruzi; reporter translation, Renilla luciferase mRNA translation; cell-free extract; 40 µM; baseline: DMSO).
`Cn1cc(-c2ccc(-c3cncc(Cl)c3N3CCC4(CCNC4=O)CC3)cc2)cn1` — result for “log2 fold change”: 2.19 (COLO 205; gene expression, microarray, measured: TNFSF10 mRNA; concentration not given, 6 h; baseline: untreated cells).
`S=C(S)N1CCCC1` gave an EC90 of 4.5 µM (Toxoplasma gondii; parasite growth, luciferase reporter; HFF, tachyzoite; 72 h).
The biofilm formation of `COc1cc(C#CC(=O)c2ccc(C)cc2)ccc1O` is reported as 74% (Pseudomonas aeruginosa; static biofilm; PA14; 10 µM, 24 h; baseline: DMSO).
`c1coc(-c2n[nH]cc2-c2ccnc3ccccc23)c1`: “log2 fold change” -0.14 (CMK1 (Candida albicans); kinase binding, MIB/MS competition; Candida albicans lysate; 10 µM; baseline: DMSO).
For `Oc1ccc2c(c1)OC[C@]1(O)Cc3cc(O)c(O)cc3[C@H]21`, the EC90 was 0.068 µM (Toxoplasma gondii; parasite growth; HFF, bradyzoite, alkaline-induced).
The labelling of `N#CC(=Cc1ccc(O)c(O)c1)C(=O)Nc1cccc(Cl)c1Cl` is reported as 10% (UCHL1; covalent, intact protein LC-MS; 12.5 µM).
`OC(CCN1CCCCC1)(c1ccccc1)C1CC2C=CC1C2` (stereo not shown): “EEG Beta3-power Pz-O2” 2.2 µV² (resting-state EEG; healthy elderly humans; oral, 2 mg, eyes closed, LS mean).
With `O=C(c1ccc(Nc2nccc(-c3cc4ccccc4s3)n2)cc1)N1CCC(N2CCCC2)CC1` the EC90 was 4.27 µM (Toxoplasma gondii; parasite growth, luciferase reporter; HFF, tachyzoite; 72 h).
`C[C@H]1C[C@H]2CSC(N)=N[C@@]2(c2nc(NC(=O)c3ccc(OC(F)F)cn3)cs2)CO1` — result for “percent change from baseline”: -78.2% (measured: Aβ1-40; healthy adults, plasma; 400 mg single dose, 6 h post-dose; baseline: placebo).

Excerpt of the above:
`COc1cc(C=C(C#N)C(=O)NC(C)C)sn1` gave a labelling of 9.76% (UCHL1; covalent, intact protein LC-MS; 12.5 µM).
`S=C(S)N1CCCC1` gave an EC90 of 4.5 µM (Toxoplasma gondii; parasite growth, luciferase reporter; HFF, tachyzoite; 72 h).
